# Assay results gathered from unrelated publications.
# Each line is one published result; not all experiments were run side by side. “And” joins repeats or separate records; there may be more than shown.
# CDK1 with cyclin B: Cyclin-dependent kinase 1, with cyclin B (CDK1, Homo sapiens, UniProt P06493)
# CDK1: Cyclin-dependent kinase 1 (CDK1, Homo sapiens, UniProt P06493)
# CDK1 with cyclin A2: Cyclin-dependent kinase 1, with cyclin A2 (CDK1, Homo sapiens, UniProt P06493)
# CDK1 with cyclin B1: Cyclin-dependent kinase 1, with cyclin B1 (CDK1, Homo sapiens, UniProt P06493)
SMILES,target,assay,test system,conditions,how to read,quantity,value
NC(=O)[C@@H](O)C[C@H]1CCc2sc3ncnc(O[C@H]4CC[C@H](N5CCOCC5)CC4)c3c21,CDK1 with cyclin B,"enzyme activity, inhibitor",,10 µM,,inhibition,27%
COc1ccc(O)cc1-c1c[nH]c2ncc(-c3cncc(C(=O)N(C)C)c3)cc12,"Cyclin-dependent kinase 1, with cyclin E1 (CDK1, Homo sapiens, UniProt P06493)","binding, competition with immobilised ligand",,0.2 µM,,inhibition,16.1%
C=CC(=O)Nc1cccc(-c2cnc3[nH]cc(C(=O)NC(C)(C)C)c3n2)c1,CDK1,"enzyme activity, inhibitor",,0.1 µM,,inhibition,37%
Cc1cc(C)nc(NS(=O)(=O)c2ccc(NC(=O)CCCOc3ccc(C(C)(C)C)cc3)cc2)n1,CDK1,"enzyme activity, inhibitor, ADP detection",,100 µM,,inhibition,91%
O=C(O)CCC(=O)c1cccc(NS(=O)(=O)c2c[nH]c3ncccc23)c1,CDK1 with cyclin B,"kinase activity, radiometric",,10 µM,,remaining activity,111%
CN1CCN(Cc2ccc(-c3ccc(CO[C@H]4CCC[C@@H]4NC(=O)c4cc(-c5cnn(C)c5)cnc4N)cc3)cc2)CC1,CDK1 with cyclin A2,"enzyme activity, inhibitor",,0.1 µM,,inhibition,2%
N[C@H]1CC[C@H](Nc2nccc(-c3cccnc3Oc3ccc(NC(=O)NC4CC4)c4ccccc34)n2)CC1,CDK1,kinobead competition pulldown,HEK293/HCT116 lysate mixture,"10 µM, 1 h, 4 °C",lower = stronger competition,log2 LFQ intensity,26 and 25.8 and 25.6
Cc1cccc(O[C@H]2CCC[C@@H](C(C)CNCc3ccncc3)C2)c1 (relative stereo),CDK1,"enzyme activity, inhibitor",,1 µM,,inhibition,2%
CCc1nnc(Nc2cnc([C@@H]3CCCN(C(=O)CCc4cccnc4)C3)cn2)s1,CDK1,"enzyme activity, inhibitor, ADP detection",,1 µM,,activity vs control,101%
CN1C[C@@H](c2c[nH]c3cc(Br)ccc23)NC[C@@H]1c1c[nH]c2cc(Br)ccc12,CDK1 with cyclin B1,"enzyme activity, inhibitor",,10 µM,,remaining activity,111%
Cc1[nH]nc2c1N=C(c1ccccc1Cl)c1cnc(N3CCOCC3)cc1N2,CDK1,"enzyme activity, inhibitor",,0.5 µM,,inhibition,2%
NC(=O)C[C@H]1CCc2sc3ncnc(O[C@H]4CC[C@H](N5CCOCC5)CC4)c3c21,"Cyclin-dependent kinase 1, with cyclin A (CDK1, Homo sapiens, UniProt P06493)","enzyme activity, inhibitor",,10 µM,,inhibition,1%
Cc1cc(C)nc(Nc2ccc([C@@H]3CCCN(C(=O)/C=C/c4csc(C)n4)C3)nc2)n1,CDK1,"enzyme activity, inhibitor, ADP detection",,1 µM,,activity vs control,98%
COCC12C(=O)NC3C4(C(OC)CC1O)C1CC5(O)C(OC)C(O)C(OC(C)=O)(C1C5OC(=O)c1ccccc1)C3(O)C(OC)C24 (stereo not shown),CDK1 with cyclin B1,"kinase activity, inhibitor, ProQinase kinase profiling",,25 µM,reference: control,remaining activity,75% and 67%
CCn1cc(C(=O)O)c(=O)c2c(N)c(F)c(NC3CCCCC3)cc21,CDK1 with cyclin A2,kinase activity,,"0.1 µM, added: ATP at Km",,inhibition,9.3%
C=CC(=O)N1Cc2nc(-c3cc(-c4cc(Cl)cnc4Cl)c(F)cc3F)n(-c3ccncn3)c2C1,CDK1 with cyclin B,"cell-free assay, inhibitor",,1 µM,,inhibition,6.2%
COc1ccc(NC(=O)Nc2ccc3c(c2)C(=O)N(C(C)CO)CC(C)C(CN(C)Cc2ccc4c(c2)OCO4)O3)cc1 (stereo not shown),CDK1 with cyclin B,"kinase activity, KinaseProfiler",,"0.03 µM, species human",reference: control,remaining activity,100%
Nc1ncc(-c2cc(-c3cnn(CC(F)(F)F)c3)ncc2F)nc1C(=O)NC1CNCC(F)C1 (stereo not shown),"Cyclin-dependent kinase 1, with cyclin E (CDK1, Homo sapiens, UniProt P06493)",enzyme activity,,1 µM,reference: DMSO control,remaining activity,86.1%
CN1CC[C@@H](COc2cnc(C#N)cc2-c2ccn3nc(NC(=O)C4CC4)cc3c2)C1,CDK1 with cyclin B,"enzyme activity, inhibitor",,1 µM,,inhibition,13%

# Excerpt of the above:
SMILES,target,assay,test system,conditions,how to read,quantity,value
C=CC(=O)N1Cc2nc(-c3cc(-c4cc(Cl)cnc4Cl)c(F)cc3F)n(-c3ccncn3)c2C1,CDK1 with cyclin B,"cell-free assay, inhibitor",,1 µM,,inhibition,6.2%
COc1ccc(NC(=O)Nc2ccc3c(c2)C(=O)N(C(C)CO)CC(C)C(CN(C)Cc2ccc4c(c2)OCO4)O3)cc1 (stereo not shown),CDK1 with cyclin B,"kinase activity, KinaseProfiler",,"0.03 µM, species human",reference: control,remaining activity,100%
